# Experimental data of several laboratories.
# Every numbered part comes from another study and shows a few of its results, in no order.

# Study 1
# Target: RNA binding protein fox-1 homolog 2, RRM domain, GST-SBP tag (RBFOX2, Homo sapiens, UniProt O43251-10, residues 100-194)
# Technique: RNA Bind-n-Seq
# Molecule type: RNA
# Matrix: in vitro
# Tested at: 365 nM
# Notes: natural RNA segment, single round, ends assumed
# Reference: no-protein control
# Direction: higher = stronger binding
# All sequences stand within: GGGAGUUCUACAGUCCGACGAUC … UGGAAUUCUCGGGUGCCAA
# Construct (chain): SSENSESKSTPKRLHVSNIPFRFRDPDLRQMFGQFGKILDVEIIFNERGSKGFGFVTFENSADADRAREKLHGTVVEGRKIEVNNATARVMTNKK
Sequence,RBNS enrichment (R)
AAGUUCUGAGAGAUGGGGAGCGGCCCCCAGCCCCCGCCCCAUCCUGUCAGGUUGGUGCGGAAGGGCUAGGAUCCUUGCCGCCCUUCCCUUCGGUGCCGGAACCCUCCCAA,0.179
AAGCUCUCUGUUCAGCUCCGCGUUCUCAUGCUUCUCAUGGGGUGGGAAAAGGGGGCAAAGCCCCCACUUUUUAUACACUAGGCGGGGUAGACUGCGGGGUCCUAGCCUCU,0.335
GUACCUGAAACUAGGUCUGGGGCACUCCCAAUGCAGCGCCUUGUCAGCCAAGGUGGGCAGGCAGGGACUGUGGCAGCUUAUGUCCAAAGGGAGCCCCCAUGCACAGGAAG,0.414
GUUUUCUUAGGAGGGUGUCUGGCAGAGACAGGCCAGCCCCCACUUGCUGGCCAGGGGUCCCUUGGGGCAGCACGUGGACCCUUCCAAAACUAUACACACUGCCCCCGACU,0.793
UUUCAAUGGGACAGGAACUAGGAUAGAUGUGAUUCCUGCAUUUUUUUACCUUAAAUCUGCCUUUGUUUCUAAAGGUAGAUCAUCUUGAAUAUUUGCUUAAAAUUGCUAGU,0.937
CCCGUCCUGGCUAUGAAACCUUGUGAGCAGAAGGCAAGAGCGGCAAGAUGAGUUUUGAGCGUUGUAUUCCAAAGGCCUCAUCUGGAGCCUCGGGAAAGUCUGGUCCCACA,0.34
ACCACACCUGGCUAAUUUUUUGUAUUUUUAGUAGAGACAGGGGUUUCUUCCAUGUUGCCCAGGCUGGUCUCGAACUCCUGGACUCAAGCAAUCCGCCCACCUUGACUUCC,0.376
UUUCAAGUUUAAUAAAAUAGCAAUUAGCAGAAGUGACCAAAUUGGGAGAUAAUUAUCAGUCAUGAGGAAAGACACAGAUUUCGGUCAUAAAGAAUGUAAGGGCUAUAAGU,0.647
UUAUGAGGCUUUCAAUCGUGGAAGCUCAGGAGGGAAUGGUCCUGAUAGUGACAUCUGGGACCCCAGGCCUCUGAAGCAUUUGCAGCCUCCUCAGGAGGGUGAGGGCCAUC,0.344
AAAAAGUUGAUAUUGUGUUUUGUGGGACUGUAUAUGUUGUCAUUUUUAAAGGGGGGAAAUAACAUCCAAGUCUGAUUAGAACCGCCCAUCAGUUGUUCUUGGAAGUUUUU,1.64
CCUUUGCACUGAGGACACAGAUCCCGGGGAGCUGUGAGGGCCACCGGUGGGCAGUGGGUGGAUCCUGGUUUCGUGUGCUGCCCAUGCACCUUCCAGCCCGGGGCCAGCUU,0.468
CAGCAUAUAAAAACAUCAGUCCCGAGGAGGGGACAACAAUACUACCUCACUACUACAUCUGUGAUGACUGGUUGUUCAAACACAAUGGAGUGUGUAAGGUAUAUGUUUUA,1.29

# Study 2
# Target: Prothrombin, mature alpha-thrombin (F2, Homo sapiens, UniProt P00734)
# Technique: aptamer microarray, sandwich
# Molecule type: DNA with 2'F-ANA
# Matrix: in vitro
# Tested at: 200 nM
# Notes: whole 15-mer aptamer, many near background
# Added: Cy3 exosite-II aptamer, 400 nM
# Direction: higher = stronger binding
# Sequence: GGTTGGTGTGGTTGG
Modification,mean fluorescence intensity [a.u.]
2'F-ANA at 2 3 5 6 7 8 13 14 15,51.3
2'F-ANA at 1 2 3 6 8 9 12 13 15,349
2'F-ANA at 5 6 7 8 9 14 15,46.7
2'F-ANA at 3 5 7 8 9 10 12 13 15,66
2'F-ANA at 2 5 7 8 11 12 14 15,60.1
2'F-ANA at 1 2 4 7 8 10 12 14,46
2'F-ANA at 1 3 4 5 6 7 10 11 13 14 15,48.4
2'F-ANA at 2 3 5 6 9 11 12 15,150
2'F-ANA at 3 6 12 14,694
2'F-ANA at 4 5 6 8 9 10 12 15,59.1
2'F-ANA at 1 3 6 7 8 9 12,506
2'F-ANA at 1 3 5 6 8 11 14 15,57.3
2'F-ANA at 4 5 6 8 9 10 12 14,41.5
2'F-ANA at 9 10 11 12 15,173
2'F-ANA at 5 7 8 10 11 13 14,46.5
2'F-ANA at 3 4 6 8 13,468
2'F-ANA at 1 3 5 7 10 12,71.4
2'F-ANA at 1 2 4 5 7 8 9 10 11,47
2'F-ANA at 1 4 6 7 8 12,317
2'F-ANA at 2 3 4 6 7 8 9 10 12,305
2'F-ANA at 1 4 5 8 10 11 15,49.7
2'F-ANA at 1 2 3 5 8 9 11 12 15,95.7
2'F-ANA at 2 3 4 8 9 10 13 14 15,154
2'F-ANA at 2 5 9 11 14 15,51.1
2'F-ANA at 2 5 6 8 10 13,48.2

# Study 3
# Target: Interferon regulatory factor 5, full length, phosphomimetic (IRF5, Homo sapiens, UniProt Q13568-2, residues 1-514, S451D/S453D/S456D/S462D)
# Technique: protein-binding microarray
# Molecule type: double-stranded DNA, one strand shown
# Matrix: in vitro
# Tested at: 940 nM top
# Notes: 60-bp whole probe
# Added: salmon DNA 0.4 mg/ml
# Reference: random background probes
# Direction: higher = stronger binding
# All sequences stand within: GCCTAGCAC … GTCTTGATTCGCTTGACGCTGCTG
Sequence,fitted relative affinity [z-score]
TTAGGTTTCCTCTTCCTTTAGTGCTAG,2.16
TCAGCCATATTTATCTGACTGTGCTAG,-0.136
TTAGAACTCGGGACTGGATTAGTGCTA,-0.494
TTAGAACTGGGACTGGGTTAGTGCTAG,-0.649
TAAGGTATCCTTTTCCTTTAGTGCTAG,0.415
TCAACTTTGGTTTGTACACTGTGCTAG,-0.119
GCTCATCTGTCATGTTTGTCAGTGCTA,2.19
TTATGTGTAGGTCTTAAATAGTGCTAG,-0.254
TAAGGTATCGACTATCGGTTAGTGCTA,3.88
GGCGGTTTCGGTTCCGGGACGTGCTAG,14.3
AAGAATCAGGGGTTTTATCCGTGCTAG,-0.18
TTAGGTTTCCTAATCCTTTAGTGCTAG,0.859
TTTTTTTTTTCCCTGAAAAAGTGCTAG,1.61
GACGATCTCAGTTGCGAGACGTGCTAG,0.624
GACTATTTCGGGTATCGAGACGTGCTA,1.19
TTAGAACTGACTCTCGATTAGTGCTAG,2.56
TTAGATTTCGCGTTTCGATTAGTGCTA,2.24
TCAGGACTGGGGACTGGGTTAGTGCTA,-0.35
GACGGTATCTTTCTCCTGACGTGCTAG,1.5
TCAAATATCTTTGTTGAACTGTGCTAG,-0.095
GACGATTTCAGACTGGAGCCGTGCTAG,-0.63
TCACATATAATTTTGTCACTGTGCTAG,0.361
CAGGGGCTGCCTGGATGCCGGTGCTAG,-1.14
TTAGGACTGGGGACTAGGTTAGTGCTA,-0.38
TCACTTTTCCATTTTGTACTGTGCTAG,1.91

# Study 4
# Target: Sal-like protein 4, full length isoform A (SALL4, Homo sapiens, UniProt Q9UJQ4, residues 1-1053)
# UniProt Q9UJQ4, sequence (whole entry, looked up): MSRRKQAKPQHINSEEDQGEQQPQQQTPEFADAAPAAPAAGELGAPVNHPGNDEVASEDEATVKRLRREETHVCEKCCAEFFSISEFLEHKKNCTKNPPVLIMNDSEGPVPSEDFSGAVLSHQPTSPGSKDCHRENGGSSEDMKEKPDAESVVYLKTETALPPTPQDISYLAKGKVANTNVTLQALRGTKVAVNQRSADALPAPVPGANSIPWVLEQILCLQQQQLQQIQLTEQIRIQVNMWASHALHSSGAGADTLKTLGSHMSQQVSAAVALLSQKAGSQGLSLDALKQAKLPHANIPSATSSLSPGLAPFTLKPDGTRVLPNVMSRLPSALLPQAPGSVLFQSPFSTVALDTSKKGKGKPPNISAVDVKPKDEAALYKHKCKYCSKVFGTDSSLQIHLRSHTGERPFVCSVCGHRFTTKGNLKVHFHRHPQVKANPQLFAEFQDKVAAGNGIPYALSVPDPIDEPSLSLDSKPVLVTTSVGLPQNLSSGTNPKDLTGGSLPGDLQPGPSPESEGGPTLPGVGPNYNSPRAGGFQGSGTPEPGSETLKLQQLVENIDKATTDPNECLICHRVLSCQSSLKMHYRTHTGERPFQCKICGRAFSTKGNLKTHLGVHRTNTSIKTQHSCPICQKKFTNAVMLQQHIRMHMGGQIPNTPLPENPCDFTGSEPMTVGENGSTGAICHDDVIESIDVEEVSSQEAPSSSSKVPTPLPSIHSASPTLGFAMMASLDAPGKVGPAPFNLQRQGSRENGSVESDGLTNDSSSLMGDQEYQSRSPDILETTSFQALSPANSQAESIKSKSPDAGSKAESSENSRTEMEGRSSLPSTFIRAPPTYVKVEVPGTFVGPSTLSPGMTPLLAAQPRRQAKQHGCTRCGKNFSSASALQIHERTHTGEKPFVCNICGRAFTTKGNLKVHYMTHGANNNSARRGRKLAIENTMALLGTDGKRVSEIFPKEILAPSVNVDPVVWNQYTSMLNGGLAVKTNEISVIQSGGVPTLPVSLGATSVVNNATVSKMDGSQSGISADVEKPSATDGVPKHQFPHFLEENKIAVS
# Technique: universal PBM
# Molecule type: double-stranded DNA, one strand shown
# Matrix: in vitro
# Tested at: 600 nM
# Notes: 8-mer, flanks averaged, mean of replicates
# Direction: higher = stronger binding
Sequence,E-score
GCGATGTA,0.0866
GTAAGCAA,0.124
CCTGCGAC,-0.23
CCGGAGCA,-0.246
CTTGGCAC,-0.071
AGGAATAA,0.236
CGGAGTAA,-0.0864
CCCAAGAG,-0.149
CACGATTA,0.111
CACGTTTC,-0.165
CTTATTCA,0.148
CTAAATAC,0.216
AATTAGGA,0.263
AGGGTGGA,-0.171
GGTATTGA,0.0484
ATGAAAGG,0.153
CACCTGAA,0.112
GACATGTA,0.184
CGGGGGCA,-0.236
CAAGACTA,0.149
AACAGCCA,0.107
AGGGGCTG,-0.218

# Repeated from above (study 3):
Sequence,fitted relative affinity [z-score]
TCAGCCATATTTATCTGACTGTGCTAG,-0.136
GCTCATCTGTCATGTTTGTCAGTGCTA,2.19
TTAGAACTGACTCTCGATTAGTGCTAG,2.56
GACGATTTCAGACTGGAGCCGTGCTAG,-0.63
CAGGGGCTGCCTGGATGCCGGTGCTAG,-1.14
TAAGGTATCCTTTTCCTTTAGTGCTAG,0.415
TCAGGACTGGGGACTGGGTTAGTGCTA,-0.35
TTAGAACTCGGGACTGGATTAGTGCTA,-0.494
TTAGAACTGGGACTGGGTTAGTGCTAG,-0.649
AAGAATCAGGGGTTTTATCCGTGCTAG,-0.18
TCAACTTTGGTTTGTACACTGTGCTAG,-0.119
TCACATATAATTTTGTCACTGTGCTAG,0.361
TTAGGTTTCCTCTTCCTTTAGTGCTAG,2.16
TAAGGTATCGACTATCGGTTAGTGCTA,3.88
